Published values collected from several papers.
Protocols differ between the studies behind these lines.

CC1=CC(C)=[N+]2C1=C(c1ccc(C[P+](C3CCCCC3)(C3CCCCC3)C3CCCCC3)cc1)c1c(C)cc(C)n1[B-]2(F)F  emission maximum (PBS; 10 µM, pH 7.4, 298 K, together with: excitation 497 nm): 511 nm
CCOC(=O)c1[nH]c(C)c(/C=C/C2=[N+]3C(=C(c4cc(OC)cc(OC)c4)c4c(C)c(I)c(/C=C/c5c(C)[nH]c(C(=O)OCC)c5C)n4[B-]3(F)F)C(C)=C2I)c1C  emission maximum (THF): 713 nm
CC1=CC(C)=[N+]2C1=C(CCCC(=O)NCCCC[C@H](NC(=O)N[C@@H](CCC(=O)O)C(=O)O)C(=O)O)c1c(C)cc(C)n1[B-]2(F)F  emission maximum (acetonitrile/water): 506 nm
CCn1cc(/C=C/c2sc3ccccc3[n+]2CC)c2ccccc21  emission maximum (PBS; together with: excitation 488 nm): 538 nm
COc1ccc2c(c1)c(CC(=O)NCCCCNC(=O)c1ccc(C3=c4cc5c6c(c4Oc4c3cc3c7c4CCCN7CCC3)CCC[N+]=6CCC5)c(C(=O)[O-])c1)c(C)n2C(=O)c1ccc(Cl)cc1  emission maximum (fluorescence spectroscopy; pH 7): 605 nm
CC[N+]1=C(C=CC=CC=C2N(CCCCCC(=O)O)c3ccc4c(S(=O)(=O)[O-])cc(S(=O)(=O)[O-])cc4c3C2(C)C)C(C)(C)c2c1ccc1c(S(=O)(=O)[O-])cc(S(=O)(=O)[O-])cc21.[K+].[K+].[K+]  emission maximum (100% serum; pH 7.4): 695 nm
Nc1ncnc2c1nc(-n1nnc3c1CCC1C(CO)C1CC3)n2C1OC(CO)C(O)C1O (mixture of isomers)  emission maximum (50 mM phosphate buffer; pH 7.0): 403 nm
COCCOCCOCCOc1ccc(/C=C/C2=[N+]3C(=C(c4cc(OC)cc(OC)c4)c4c(C)c(I)c(/C=C/c5ccc(OCCOCCOCCOC)cc5)n4[B-]3(F)F)C(C)=C2I)cc1  emission maximum (DMSO): 695 nm
Cc1ccc(-c2ccc(-c3cc4sccc4o3)cn2)nc1  emission maximum (acetonitrile; zinc-free ligand): 420 nm
COC(=O)c1ccccc1-c1c2ccc(=O)cc-2oc2c1ccc1cccc(O)c12  emission maximum (HCl 12.5 mM; pH 1.9, 10% DMSO): 600 nm
COc1cc(OC)cc(C2=C3C(C)=C(I)C(C)=[N+]3[B-](F)(F)n3c(C)c(I)c(C)c32)c1  emission maximum (dichloromethane): 549 nm
NCCC(=O)N1Cc2ccccc2-c2c(nnn2-c2cn(C3OC(CO)C(O)C3O)c(=O)[nH]c2=O)-c2ccccc21 (mixture of isomers)  emission maximum (methanol): 361 nm
COc1ccc(/C=C/c2ccc(-c3ccc(C)cn3)nc2)cc1  emission maximum (aqueous HEPES buffer; pH 7.4, zinc-free ligand): 460 nm
CCCCN1C(=O)c2cccc3c(NCCCCCCN4CCOCC4)ccc(c23)C1=O  emission maximum (aqueous medium; pH 6): 556 nm
COc1cc(OC)cc(C2=C3C(C)=C(I)C(C)=[N+]3[B-](F)(F)n3c(/C=C/c4c[nH]c5ccccc45)c(I)c(C)c32)c1  emission maximum (dichloromethane): 661 nm
NCCC(=O)N1Cc2ccccc2-c2c(nnn2-c2nc(N)c3ncn(C4OC(CO)C(O)C4O)c3n2)-c2ccccc21 (mixture of isomers)  emission maximum (50 mM phosphate buffer; pH 7.0): 439 nm
CCOC(=O)c1[nH]c(C)c(/C=C/c2c(I)c(C)c3n2[B-](F)(F)[N+]2=C(C)C(I)=C(C)C2=C3c2cc(OC)cc(OC)c2)c1C  emission maximum (dichloromethane): 628 nm
CCCCN1C(=O)c2cccc3c(NCCN4CCOCC4)ccc(c23)C1=O  emission maximum (aqueous medium; pH 6): 538 nm

Repeated from above:
CCCCN1C(=O)c2cccc3c(NCCCCCCN4CCOCC4)ccc(c23)C1=O  emission maximum (aqueous medium; pH 6): 556 nm
